Measurements gathered from unrelated publications.
Compare with care: the assays were run in different laboratories. “And” joins repeats or separate records; there may be more than shown.
Target: Eukaryotic translation initiation factor 2-alpha kinase 3 (EIF2AK3, Homo sapiens, UniProt Q9NZJ5)
Residues used in one study (Q9NZJ5 30-1116): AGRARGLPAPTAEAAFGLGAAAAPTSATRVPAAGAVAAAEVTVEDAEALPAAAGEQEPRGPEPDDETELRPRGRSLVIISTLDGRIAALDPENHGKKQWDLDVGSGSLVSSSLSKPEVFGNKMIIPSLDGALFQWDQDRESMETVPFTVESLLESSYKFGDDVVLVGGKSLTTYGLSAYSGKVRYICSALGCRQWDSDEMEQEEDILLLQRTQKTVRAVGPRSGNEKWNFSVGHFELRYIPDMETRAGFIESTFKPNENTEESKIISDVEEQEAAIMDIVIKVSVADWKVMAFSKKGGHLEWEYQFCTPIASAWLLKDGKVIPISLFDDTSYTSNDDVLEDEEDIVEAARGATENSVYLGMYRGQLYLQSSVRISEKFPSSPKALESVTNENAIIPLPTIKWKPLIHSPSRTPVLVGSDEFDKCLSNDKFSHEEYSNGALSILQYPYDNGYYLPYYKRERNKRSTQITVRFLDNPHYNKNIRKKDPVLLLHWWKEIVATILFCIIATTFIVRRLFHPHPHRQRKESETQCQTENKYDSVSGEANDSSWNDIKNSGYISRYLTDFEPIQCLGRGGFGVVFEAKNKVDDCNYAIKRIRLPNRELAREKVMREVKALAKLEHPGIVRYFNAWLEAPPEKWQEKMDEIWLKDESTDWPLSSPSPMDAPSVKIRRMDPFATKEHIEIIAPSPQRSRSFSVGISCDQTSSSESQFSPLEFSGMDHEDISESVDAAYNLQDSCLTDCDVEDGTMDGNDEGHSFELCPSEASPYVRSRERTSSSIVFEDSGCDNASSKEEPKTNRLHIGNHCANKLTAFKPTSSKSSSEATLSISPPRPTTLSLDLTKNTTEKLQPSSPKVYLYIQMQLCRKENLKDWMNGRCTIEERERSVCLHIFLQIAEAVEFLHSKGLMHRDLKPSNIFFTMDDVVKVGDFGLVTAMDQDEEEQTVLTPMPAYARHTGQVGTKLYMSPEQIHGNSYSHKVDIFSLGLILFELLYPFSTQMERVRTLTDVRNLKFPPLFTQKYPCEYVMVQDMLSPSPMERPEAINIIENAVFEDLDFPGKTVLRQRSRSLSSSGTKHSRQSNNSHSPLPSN

Under “activity vs control”, `O=C(Cc1ccc(OCc2ccccc2)cc1)NC1(C(=O)O)CCN(C(=O)c2ccc(-c3cccc(Cl)c3)cc2)CC1` is recorded as 105% (enzyme activity, inhibitor; 10 µM).
The inhibition of `Cc1cccc(O[C@H]2CCC[C@@H](C(C)CNCc3ccncc3)C2)c1` (relative stereo) is reported as -13% (enzyme activity, inhibitor; 10 µM).
`CS(=O)(=O)Nc1cccc(-c2csc3cnc(Nc4ccc(N5CCN(CCCCCOc6cccc7c6C(=O)N(C6CCC(=O)NC6=O)C7=O)CC5)cc4)nc23)c1` (centres unmarked) gave an inhibition of 14.3% (probe labelling, inhibitor, KiNativ chemoproteomics; MOLT-4; 1 µM).
With `CCn1cc(C(=O)O)c(=O)c2c(N)c(F)c(NC3CCCCC3)cc21` the inhibition was -1.1% (kinase activity; 0.1 µM, with: ATP at Km).
For `C=CC(=O)Nc1cccc(-c2cnc3[nH]cc(C(=O)NC(C)(C)C)c3n2)c1`, the inhibition was 12% and -3% (kinase activity; 0.1 µM).
`O=C(Nc1ccc(Oc2ncnc3[nH]cc(-c4ccccc4)c23)c(F)c1)c1c2n(n(-c3cc(F)ccc3F)c1=O)CCCC2` gave an inhibition of 14% (enzyme activity, inhibitor; 0.5 µM).
`COc1ccc(NC(=O)Nc2ccc3c(c2)C(=O)N(C(C)CO)CC(C)C(CN(C)Cc2ccc4c(c2)OCO4)O3)cc1` (centres unmarked) gave a remaining activity of 98% (kinase activity, KinaseProfiler; 0.03 µM, species human; reference: control).
`CN1CC[C@@H](COc2cnc(C#N)cc2-c2ccn3nc(NC(=O)C4CC4)cc3c2)C1` has an inhibition of 0% (enzyme activity, inhibitor; 1 µM).
The remaining activity of `COCC12C(=O)NC3C4(C(OC)CC1O)C1CC5(O)C(OC)C(O)C(OC(C)=O)(C1C5OC(=O)c1ccccc1)C3(O)C(OC)C24` (centres unmarked) is reported as 105% (kinase activity, inhibitor, ProQinase kinase profiling; 25 µM; reference: control).
The inhibition of `Cc1nc2c(F)cc(-c3nc(Nc4ccc(CNC(=O)CCCCCCC(=O)NO)cc4)ncc3F)cc2n1C(C)C` is reported as 14% (enzyme activity, inhibitor; 1 µM).
For `COc1ccc(O)cc1-c1c[nH]c2ncc(-c3cncc(C(=O)N(C)C)c3)cc12`, the inhibition was 6.39% (binding, competition with immobilised ligand; 0.2 µM).

A few entries again:
The inhibition of `Cc1nc2c(F)cc(-c3nc(Nc4ccc(CNC(=O)CCCCCCC(=O)NO)cc4)ncc3F)cc2n1C(C)C` is reported as 14% (enzyme activity, inhibitor; 1 µM).
